Experimental data from different studies.
Parts stem from different laboratories: compare values within a part only. Values joined by “and” are separate records of one study, mostly repeats; a detail may differ.
Sequence of UniProt P51957 (whole entry, looked up): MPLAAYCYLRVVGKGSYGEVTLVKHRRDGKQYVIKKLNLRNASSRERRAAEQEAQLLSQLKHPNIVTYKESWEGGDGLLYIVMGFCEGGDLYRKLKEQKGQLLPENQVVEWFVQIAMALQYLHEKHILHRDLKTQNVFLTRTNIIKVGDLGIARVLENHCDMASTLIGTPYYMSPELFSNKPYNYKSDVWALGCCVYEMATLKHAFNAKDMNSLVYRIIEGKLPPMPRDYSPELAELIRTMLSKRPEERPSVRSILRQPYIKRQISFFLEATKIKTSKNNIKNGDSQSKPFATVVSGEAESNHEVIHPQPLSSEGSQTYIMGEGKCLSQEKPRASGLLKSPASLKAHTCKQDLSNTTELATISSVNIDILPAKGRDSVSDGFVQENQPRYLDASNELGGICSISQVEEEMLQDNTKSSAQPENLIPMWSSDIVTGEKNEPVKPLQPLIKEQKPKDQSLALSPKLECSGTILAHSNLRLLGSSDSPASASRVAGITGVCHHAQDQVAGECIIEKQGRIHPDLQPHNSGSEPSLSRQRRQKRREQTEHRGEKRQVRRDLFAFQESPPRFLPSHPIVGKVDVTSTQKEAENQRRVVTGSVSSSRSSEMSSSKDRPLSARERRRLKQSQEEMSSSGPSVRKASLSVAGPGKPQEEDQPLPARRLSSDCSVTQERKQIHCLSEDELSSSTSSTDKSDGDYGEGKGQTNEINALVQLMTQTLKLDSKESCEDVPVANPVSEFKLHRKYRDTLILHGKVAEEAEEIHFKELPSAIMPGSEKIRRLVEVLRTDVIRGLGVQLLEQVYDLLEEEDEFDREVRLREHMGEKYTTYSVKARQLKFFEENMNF
Sequence of UniProt P53778 (whole entry, looked up): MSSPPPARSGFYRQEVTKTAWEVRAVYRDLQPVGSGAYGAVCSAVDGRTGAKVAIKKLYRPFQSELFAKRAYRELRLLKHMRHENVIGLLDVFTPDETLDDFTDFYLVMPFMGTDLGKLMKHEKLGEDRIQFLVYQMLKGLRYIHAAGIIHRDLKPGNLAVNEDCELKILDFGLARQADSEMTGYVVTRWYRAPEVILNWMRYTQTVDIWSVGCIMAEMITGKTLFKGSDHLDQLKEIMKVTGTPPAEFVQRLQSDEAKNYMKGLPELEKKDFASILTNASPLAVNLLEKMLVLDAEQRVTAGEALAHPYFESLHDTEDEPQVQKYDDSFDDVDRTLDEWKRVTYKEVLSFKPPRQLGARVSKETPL
Sequence of UniProt Q6P2M8 (whole entry, looked up): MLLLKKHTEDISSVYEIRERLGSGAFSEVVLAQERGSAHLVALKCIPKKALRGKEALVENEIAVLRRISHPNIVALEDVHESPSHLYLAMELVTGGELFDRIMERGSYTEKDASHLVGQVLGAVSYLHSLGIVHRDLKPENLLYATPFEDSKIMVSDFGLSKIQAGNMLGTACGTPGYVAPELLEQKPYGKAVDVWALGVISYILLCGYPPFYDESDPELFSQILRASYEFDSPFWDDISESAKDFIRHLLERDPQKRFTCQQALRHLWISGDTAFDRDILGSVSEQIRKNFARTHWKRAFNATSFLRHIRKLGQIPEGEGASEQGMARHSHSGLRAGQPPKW
Sequence of UniProt Q9NWZ3 (whole entry, looked up): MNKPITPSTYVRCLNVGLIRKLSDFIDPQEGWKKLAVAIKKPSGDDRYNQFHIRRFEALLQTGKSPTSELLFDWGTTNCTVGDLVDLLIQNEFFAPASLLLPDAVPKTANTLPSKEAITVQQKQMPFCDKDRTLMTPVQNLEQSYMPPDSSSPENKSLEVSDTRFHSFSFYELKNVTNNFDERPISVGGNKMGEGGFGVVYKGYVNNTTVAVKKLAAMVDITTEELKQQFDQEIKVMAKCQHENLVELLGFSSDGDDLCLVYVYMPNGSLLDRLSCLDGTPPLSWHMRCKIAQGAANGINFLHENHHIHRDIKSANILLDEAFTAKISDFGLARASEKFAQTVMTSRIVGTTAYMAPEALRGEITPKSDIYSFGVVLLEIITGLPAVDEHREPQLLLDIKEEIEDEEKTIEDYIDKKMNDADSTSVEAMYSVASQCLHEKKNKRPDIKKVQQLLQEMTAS

Series 1
Compound: NC(=O)c1ccc(N(C(N)=O)c2c(F)cccc2F)nc1-c1ccc(F)cc1F
Effect on: enzyme activity
Action: inhibitor
Concentration: 0.5 µM
Baseline: control
Measurement: remaining activity
STK38 (Homo sapiens, UniProt Q15208): 101%
LYN (Homo sapiens, UniProt P07948): 98.1%
KIT (Homo sapiens, UniProt P10721): 97.7%
BTK (Homo sapiens, UniProt Q06187): 98.2%
MAP3K10 (Homo sapiens, UniProt Q02779): 104%
CHEK1 (Homo sapiens, UniProt O14757): 89.2%
PRKCI (Homo sapiens, UniProt P41743): 99.1%
MAPK12 (Homo sapiens, UniProt P53778): 92.1%
IRAK4 (Homo sapiens, UniProt Q9NWZ3): 87.5%
MKNK2 (Homo sapiens, UniProt Q9HBH9): 101%
NEK4 (Homo sapiens, UniProt P51957): 104%
PLK2 (Homo sapiens, UniProt Q9NYY3): 102%
Cyclin-dependent kinase 9, with cyclin T1 (CDK9, Homo sapiens, UniProt P50750): 96.7%
PRKG1 (Homo sapiens, UniProt Q13976): 88.1%
MAPK13 (Homo sapiens, UniProt O15264): 94%
PRKCD (Homo sapiens, UniProt Q05655): 104%
AKT3 (Homo sapiens, UniProt Q9Y243): 86.2%
MAP4K2 (Homo sapiens, UniProt Q12851): 108%
CSNK2A1 (Homo sapiens, UniProt P68400): 111%
EPHA5 (Homo sapiens, UniProt P54756): 105%
LRRK2 (Homo sapiens, UniProt Q5S007): 82%
MAP2K6 (Homo sapiens, UniProt P52564): 96.5%

Series 2
Target: Calcium/calmodulin-dependent protein kinase type II subunit alpha (CAMK2A, Homo sapiens, UniProt Q9UQM7)
Sequence of UniProt Q9UQM7 (whole entry, looked up): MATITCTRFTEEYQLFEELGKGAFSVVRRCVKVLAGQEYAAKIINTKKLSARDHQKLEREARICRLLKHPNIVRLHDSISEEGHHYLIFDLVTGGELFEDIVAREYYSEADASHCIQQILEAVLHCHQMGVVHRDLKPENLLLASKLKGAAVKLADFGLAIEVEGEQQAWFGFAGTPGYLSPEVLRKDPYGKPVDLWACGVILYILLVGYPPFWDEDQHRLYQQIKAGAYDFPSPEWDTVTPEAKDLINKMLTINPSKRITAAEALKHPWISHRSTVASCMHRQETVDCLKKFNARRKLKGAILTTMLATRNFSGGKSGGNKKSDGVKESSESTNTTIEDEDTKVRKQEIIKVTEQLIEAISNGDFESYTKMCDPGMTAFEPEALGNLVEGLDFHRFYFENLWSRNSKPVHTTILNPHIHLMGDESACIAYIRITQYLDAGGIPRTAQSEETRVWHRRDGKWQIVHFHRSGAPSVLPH
Effect on: enzyme activity
Action: inhibitor
Concentration: 10 µM
Measurement: inhibition
Oc1ccc(N=Nc2ccccn2)c(O)c1: -4%
C=C[C@H]1[C@H](O[C@@H]2O[C@H](CO)[C@@H](O)[C@H](O)[C@H]2O)OC=C(C(=O)OC)[C@H]1CC=O: 1%
C[C@]12CC[C@@H]3c4ccc(O)cc4CC[C@H]3[C@@H]1CC[C@H]2O: 21%
C[C@@H]1C(=O)O[C@H]2C[C@@]34[C@H]5C[C@@H](C(C)(C)C)[C@]36[C@@H](OC(=O)[C@@H]6O)O[C@@]4(C(=O)O5)[C@]21O: -2%
O=c1ccc2ccc(O[C@@H]3O[C@H](CO)[C@@H](O)[C@H](O)[C@H]3O)c(O)c2o1: 34%
O=c1cc(-c2ccccc2)oc2ccc(O)cc12: -6%
C[C@H](Nc1ncnc2nc[nH]c12)c1cc2cccc(Cl)c2c(=O)n1-c1ccccc1: -2%
O=C(O)CCNC(=O)c1ccc(/N=N/c2ccc(O)c(C(=O)O)c2)cc1: -8%
O=c1[nH]cc(F)c(=O)[nH]1: -10%
COc1cc(-c2oc3cc(OC)c(OC)c(O)c3c(=O)c2OC)ccc1O: -57%
C[C@H]1O[C@@H](O[C@H]2CC[C@@]3(C)[C@@H](CC[C@]4(C)[C@@H]3C=C[C@]35OC[C@@]6(CCC(C)(C)C[C@H]63)[C@H](O)C[C@]54C)[C@]2(C)CO)[C@H](O)[C@@H](O[C@@H]2O[C@H](CO)[C@@H](O)[C@H](O)[C@H]2O)[C@H]1O: -4%
CC(C)=CC[C@H](OC(=O)C=C(C)C)C1=CC(=O)c2c(O)ccc(O)c2C1=O: 4%
CC(C)(O)[C@H]1Cc2cc3ccc(=O)oc3cc2O1: -4%
CCCCCCCCCCCCOCCOCCOCCOCCOCCOCCOCCOCCOCCO: -9%

Series 3
SMILES: Cc1cc(NC(=O)c2cccc(S(F)(F)(F)(F)F)c2)cc(-n2ccn3nc(-c4cccnc4)cc23)c1
Concentration: 1 µM
Measurement: remaining binding
EPHA2 (Homo sapiens, UniProt P29317); cell-free assay, competition with immobilised ligand: 100%
Tyrosine-protein kinase ABL1, phosphorylated (ABL1, Homo sapiens, UniProt P00519, F317I); binding: 100%
Tyrosine-protein kinase JAK1, JH2 (JAK1, Homo sapiens, UniProt P23458); cell-free assay, competition with immobilised ligand: 28.7%
GSK3A (Homo sapiens, UniProt P49840); cell-free assay, competition with immobilised ligand: 100%
DAPK2 (Homo sapiens, UniProt Q9UIK4); cell-free assay, competition with immobilised ligand: 100%
EPHB6 (Homo sapiens, UniProt O15197); cell-free assay, competition with immobilised ligand: 100%
TEK (Homo sapiens, UniProt Q02763); cell-free assay, competition with immobilised ligand: 84.2%
ANKK1 (Homo sapiens, UniProt Q8NFD2); cell-free assay, competition with immobilised ligand: 100%
EGFR (Homo sapiens, UniProt P00533, G719C); cell-free assay, competition with immobilised ligand: 94.2%
MAPK4 (Homo sapiens, UniProt P31152); cell-free assay, competition with immobilised ligand: 50.4%
FES (Homo sapiens, UniProt P07332); cell-free assay, competition with immobilised ligand: 100%
PNCK (Homo sapiens, UniProt Q6P2M8); cell-free assay, competition with immobilised ligand: 100%
TYRO3 (Homo sapiens, UniProt Q06418); cell-free assay, competition with immobilised ligand: 88.4%
PTK2 (Homo sapiens, UniProt Q05397); cell-free assay, competition with immobilised ligand: 96.4%
MAP4K1 (Homo sapiens, UniProt Q92918); cell-free assay, competition with immobilised ligand: 82.1%
PI4KB (Homo sapiens, UniProt Q9UBF8); cell-free assay, competition with immobilised ligand: 78.6%
MERTK (Homo sapiens, UniProt Q12866); cell-free assay, competition with immobilised ligand: 100%
Ribosomal protein S6 kinase alpha-5, C-terminal kinase domain (RPS6KA5, Homo sapiens, UniProt O75582); cell-free assay, competition with immobilised ligand: 100%

Series 4
Target: DNA polymerase theta, helicase domain (POLQ, Homo sapiens, UniProt O75417)
Sequence of UniProt O75417 (whole entry, looked up): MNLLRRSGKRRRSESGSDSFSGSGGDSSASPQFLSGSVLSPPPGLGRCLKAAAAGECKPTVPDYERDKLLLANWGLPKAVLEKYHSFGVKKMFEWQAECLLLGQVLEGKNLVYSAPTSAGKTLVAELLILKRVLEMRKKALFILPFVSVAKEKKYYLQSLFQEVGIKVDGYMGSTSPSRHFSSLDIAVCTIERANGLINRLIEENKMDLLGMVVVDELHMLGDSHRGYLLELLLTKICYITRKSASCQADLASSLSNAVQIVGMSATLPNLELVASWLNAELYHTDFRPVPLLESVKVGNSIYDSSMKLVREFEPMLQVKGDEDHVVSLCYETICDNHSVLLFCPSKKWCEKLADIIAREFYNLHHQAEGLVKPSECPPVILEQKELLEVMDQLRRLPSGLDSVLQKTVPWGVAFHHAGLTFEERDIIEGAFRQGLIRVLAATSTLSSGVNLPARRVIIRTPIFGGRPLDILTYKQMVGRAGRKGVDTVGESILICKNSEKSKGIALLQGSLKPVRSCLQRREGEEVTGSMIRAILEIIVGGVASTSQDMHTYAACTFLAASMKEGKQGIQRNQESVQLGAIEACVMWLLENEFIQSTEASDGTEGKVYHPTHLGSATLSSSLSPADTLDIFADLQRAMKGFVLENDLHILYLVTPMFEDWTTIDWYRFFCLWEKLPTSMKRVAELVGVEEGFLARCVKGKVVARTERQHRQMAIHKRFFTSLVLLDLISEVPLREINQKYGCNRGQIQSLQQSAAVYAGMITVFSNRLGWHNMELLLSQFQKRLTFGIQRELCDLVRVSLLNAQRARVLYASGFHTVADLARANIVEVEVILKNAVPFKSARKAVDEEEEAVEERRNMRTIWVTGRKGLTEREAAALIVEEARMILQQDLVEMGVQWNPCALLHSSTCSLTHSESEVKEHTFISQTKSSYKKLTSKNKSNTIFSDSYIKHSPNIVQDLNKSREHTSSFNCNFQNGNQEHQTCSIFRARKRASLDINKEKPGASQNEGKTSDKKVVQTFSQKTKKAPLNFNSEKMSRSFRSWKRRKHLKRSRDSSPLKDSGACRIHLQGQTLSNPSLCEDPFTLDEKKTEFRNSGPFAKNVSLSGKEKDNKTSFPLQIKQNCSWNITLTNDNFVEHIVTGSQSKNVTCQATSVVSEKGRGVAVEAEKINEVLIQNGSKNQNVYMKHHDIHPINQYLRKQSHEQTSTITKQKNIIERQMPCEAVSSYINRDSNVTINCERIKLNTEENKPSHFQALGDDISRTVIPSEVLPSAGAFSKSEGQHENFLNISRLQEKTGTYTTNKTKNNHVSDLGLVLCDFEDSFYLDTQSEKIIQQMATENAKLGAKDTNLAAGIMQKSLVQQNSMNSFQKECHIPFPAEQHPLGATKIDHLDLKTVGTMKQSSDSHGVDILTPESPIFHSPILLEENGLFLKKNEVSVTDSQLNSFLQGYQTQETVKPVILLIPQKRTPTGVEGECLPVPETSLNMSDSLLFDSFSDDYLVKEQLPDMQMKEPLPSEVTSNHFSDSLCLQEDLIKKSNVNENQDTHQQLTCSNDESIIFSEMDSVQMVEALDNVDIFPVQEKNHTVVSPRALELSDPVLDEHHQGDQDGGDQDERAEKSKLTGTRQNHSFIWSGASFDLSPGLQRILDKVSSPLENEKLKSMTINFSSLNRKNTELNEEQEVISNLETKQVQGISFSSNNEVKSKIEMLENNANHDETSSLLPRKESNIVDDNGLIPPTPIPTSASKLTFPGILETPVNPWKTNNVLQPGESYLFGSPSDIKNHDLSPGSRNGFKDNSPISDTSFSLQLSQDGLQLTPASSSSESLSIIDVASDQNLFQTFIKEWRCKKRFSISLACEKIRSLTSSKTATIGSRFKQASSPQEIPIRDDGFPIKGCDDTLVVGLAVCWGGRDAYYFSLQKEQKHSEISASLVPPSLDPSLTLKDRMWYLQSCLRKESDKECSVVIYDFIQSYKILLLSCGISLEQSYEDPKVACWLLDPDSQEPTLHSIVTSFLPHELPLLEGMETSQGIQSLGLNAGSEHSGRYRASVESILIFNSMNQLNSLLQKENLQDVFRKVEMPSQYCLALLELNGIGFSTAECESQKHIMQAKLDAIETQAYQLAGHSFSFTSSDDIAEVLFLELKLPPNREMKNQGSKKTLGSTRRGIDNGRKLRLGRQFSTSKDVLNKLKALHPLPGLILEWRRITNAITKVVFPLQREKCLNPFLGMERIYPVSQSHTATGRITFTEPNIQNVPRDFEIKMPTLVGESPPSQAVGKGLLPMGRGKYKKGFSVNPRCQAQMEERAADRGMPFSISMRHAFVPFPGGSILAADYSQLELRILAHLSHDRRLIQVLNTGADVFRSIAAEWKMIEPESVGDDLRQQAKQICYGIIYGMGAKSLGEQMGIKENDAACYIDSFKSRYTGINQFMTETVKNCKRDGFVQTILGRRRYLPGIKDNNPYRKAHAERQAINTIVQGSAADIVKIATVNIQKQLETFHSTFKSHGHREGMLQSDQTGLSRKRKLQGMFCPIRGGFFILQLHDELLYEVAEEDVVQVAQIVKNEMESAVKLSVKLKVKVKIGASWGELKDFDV
Effect on: enzyme activity
Concentration: concentration not given
Notes: without ssDNA
Measurement: remaining activity
COc1cccc2c1C(=O)c1c(O)c3c(c(O)c1C2=O)C[C@@](O)(C(C)=O)C[C@@H]3O[C@H]1C[C@H](N)[C@H](O)[C@H](C)O1: 100%
Cc1noc(C)c1S(=O)(=O)Nc1ccc(C(=O)Nc2ccc(Br)cc2)cc1: 78%
O=C(Nc1cc2cc[nH]c2cn1)c1ccccc1: 51.3%
Cc1nc(N=Nc2cc(S(=O)(=O)O)c3cc([N+](=O)[O-])cc(S(=O)(=O)O)c3c2)c(COP(=O)(O)O)c(C=O)c1O: 154%
COC(=O)c1cc(Cl)ccc1NC(=O)CSc1ncc(S(=O)(=O)c2ccc(Br)cc2)c(=O)[nH]1: 90.1%
CCCCCCCCCCCCCCCC(=O)OC[C@H](O)[C@H]1OC(=O)C(O)=C1O: 43.1%
CCc1ccc(/C=C2/SC(=S)NC2=O)cc1: 45%
CC1=Nc2cc(C(=O)NCCc3ccc(Cl)cc3)ccc2Sc2ccc(C)cc21: 62.5%
CC(=O)[C@]1(O)Cc2c(O)c3c(c(O)c2[C@@H](O[C@H]2C[C@H](N)[C@H](O)[C@H](C)O2)C1)C(=O)c1ccccc1C3=O: 101% and 99.7%
N#Cc1c(O)c2c(-c3ccc(-c4ccccc4O)cc3)csc2[nH]c1=O: 48.2%
Cc1ccc(NC(=O)CSc2ncc(S(=O)(=O)c3ccc(C(C)C)cc3)c(=O)[nH]2)cc1C: 92.1%
CCOc1ccccc1NC(=O)CSc1ncc(S(=O)(=O)c2ccc(C(C)(C)C)cc2)c(=O)[nH]1: 71.4%
O=C(O)/C(=C/c1c(C(=O)O)[nH]c2cc(Cl)cc(Cl)c12)c1ccccc1: 39.2%
O=C(O)c1cccnc1Nc1cccc(C(F)(F)F)c1: 37%
